{"data": "Measurements collected from several papers", "note": "Parts stem from different laboratories: compare values within a part only. Several values in a cell are separate wells, animals, samples, runs or records.", "UniProt Q96D53, sequence (whole entry, looked up)": "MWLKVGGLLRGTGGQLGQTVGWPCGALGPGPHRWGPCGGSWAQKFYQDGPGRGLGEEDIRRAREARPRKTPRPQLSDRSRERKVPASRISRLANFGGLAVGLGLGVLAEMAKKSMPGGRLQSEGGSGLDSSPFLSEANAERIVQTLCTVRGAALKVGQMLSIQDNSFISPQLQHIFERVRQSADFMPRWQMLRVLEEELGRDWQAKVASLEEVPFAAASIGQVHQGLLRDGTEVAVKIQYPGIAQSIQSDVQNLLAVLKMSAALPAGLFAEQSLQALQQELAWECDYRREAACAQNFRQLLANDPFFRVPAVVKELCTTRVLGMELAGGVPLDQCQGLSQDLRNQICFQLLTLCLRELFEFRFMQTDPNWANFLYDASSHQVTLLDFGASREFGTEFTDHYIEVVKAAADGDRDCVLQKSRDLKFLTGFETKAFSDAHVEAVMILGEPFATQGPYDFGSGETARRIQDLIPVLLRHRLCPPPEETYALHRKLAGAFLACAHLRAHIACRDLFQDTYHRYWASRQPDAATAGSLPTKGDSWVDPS", "UniProt Q96BR1, sequence (whole entry, looked up)": "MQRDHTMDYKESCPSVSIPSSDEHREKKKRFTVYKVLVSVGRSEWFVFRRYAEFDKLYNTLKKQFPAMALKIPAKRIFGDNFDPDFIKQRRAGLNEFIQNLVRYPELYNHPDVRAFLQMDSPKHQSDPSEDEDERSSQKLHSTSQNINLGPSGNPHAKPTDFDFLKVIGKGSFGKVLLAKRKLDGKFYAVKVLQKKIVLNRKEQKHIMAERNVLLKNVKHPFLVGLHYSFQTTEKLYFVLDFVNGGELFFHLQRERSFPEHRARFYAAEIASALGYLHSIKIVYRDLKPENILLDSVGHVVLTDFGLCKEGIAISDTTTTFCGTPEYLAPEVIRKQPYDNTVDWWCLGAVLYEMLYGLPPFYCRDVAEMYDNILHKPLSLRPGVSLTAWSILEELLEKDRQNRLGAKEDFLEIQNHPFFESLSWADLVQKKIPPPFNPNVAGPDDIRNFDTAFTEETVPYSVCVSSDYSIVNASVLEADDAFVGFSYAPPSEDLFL", "UniProt Q9NQU5, sequence (whole entry, looked up)": "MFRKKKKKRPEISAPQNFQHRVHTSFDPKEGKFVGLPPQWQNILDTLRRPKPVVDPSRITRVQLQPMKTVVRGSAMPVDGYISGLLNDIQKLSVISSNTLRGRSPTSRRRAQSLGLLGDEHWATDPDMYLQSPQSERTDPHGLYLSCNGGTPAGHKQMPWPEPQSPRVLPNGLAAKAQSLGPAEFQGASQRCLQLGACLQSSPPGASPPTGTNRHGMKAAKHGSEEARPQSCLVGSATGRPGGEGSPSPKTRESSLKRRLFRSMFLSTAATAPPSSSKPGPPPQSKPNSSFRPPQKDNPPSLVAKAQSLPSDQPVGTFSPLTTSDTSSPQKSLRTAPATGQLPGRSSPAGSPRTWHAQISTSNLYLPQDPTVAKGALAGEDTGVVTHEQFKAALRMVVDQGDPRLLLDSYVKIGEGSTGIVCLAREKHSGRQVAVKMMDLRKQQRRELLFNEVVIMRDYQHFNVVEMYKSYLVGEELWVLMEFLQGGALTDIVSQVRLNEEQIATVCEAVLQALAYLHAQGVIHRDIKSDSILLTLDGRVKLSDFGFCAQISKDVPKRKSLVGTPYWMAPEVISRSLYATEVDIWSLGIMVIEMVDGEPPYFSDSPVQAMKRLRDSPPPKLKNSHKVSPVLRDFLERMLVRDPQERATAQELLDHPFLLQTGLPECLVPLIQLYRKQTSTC", "UniProt P29320, sequence (whole entry, looked up)": "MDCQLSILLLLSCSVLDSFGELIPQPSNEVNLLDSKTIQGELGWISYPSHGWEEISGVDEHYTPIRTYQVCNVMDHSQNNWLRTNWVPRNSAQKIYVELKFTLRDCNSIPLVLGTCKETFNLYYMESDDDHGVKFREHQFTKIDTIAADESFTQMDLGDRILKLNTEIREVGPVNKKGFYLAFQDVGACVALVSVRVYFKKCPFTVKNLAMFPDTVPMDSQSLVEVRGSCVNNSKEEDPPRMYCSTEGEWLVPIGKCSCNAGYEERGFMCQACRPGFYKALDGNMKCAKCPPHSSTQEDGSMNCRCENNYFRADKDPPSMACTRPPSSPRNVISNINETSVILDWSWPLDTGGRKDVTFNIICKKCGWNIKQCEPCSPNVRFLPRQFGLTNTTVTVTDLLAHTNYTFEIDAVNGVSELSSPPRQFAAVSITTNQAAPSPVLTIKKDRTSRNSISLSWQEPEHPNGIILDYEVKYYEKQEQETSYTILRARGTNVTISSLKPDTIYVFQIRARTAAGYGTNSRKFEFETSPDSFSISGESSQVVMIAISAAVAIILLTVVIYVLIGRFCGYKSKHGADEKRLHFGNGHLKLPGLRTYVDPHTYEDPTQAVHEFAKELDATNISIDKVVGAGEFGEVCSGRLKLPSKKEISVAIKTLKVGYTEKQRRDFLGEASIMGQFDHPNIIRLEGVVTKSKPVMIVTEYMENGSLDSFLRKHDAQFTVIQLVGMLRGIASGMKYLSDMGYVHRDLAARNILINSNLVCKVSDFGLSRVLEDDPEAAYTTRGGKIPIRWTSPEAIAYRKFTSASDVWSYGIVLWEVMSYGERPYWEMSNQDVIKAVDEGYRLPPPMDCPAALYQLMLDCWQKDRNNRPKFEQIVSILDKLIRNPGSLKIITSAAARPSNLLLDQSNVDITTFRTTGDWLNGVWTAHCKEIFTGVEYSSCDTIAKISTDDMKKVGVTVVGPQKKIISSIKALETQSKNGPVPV", "UniProt P51956, sequence (whole entry, looked up)": "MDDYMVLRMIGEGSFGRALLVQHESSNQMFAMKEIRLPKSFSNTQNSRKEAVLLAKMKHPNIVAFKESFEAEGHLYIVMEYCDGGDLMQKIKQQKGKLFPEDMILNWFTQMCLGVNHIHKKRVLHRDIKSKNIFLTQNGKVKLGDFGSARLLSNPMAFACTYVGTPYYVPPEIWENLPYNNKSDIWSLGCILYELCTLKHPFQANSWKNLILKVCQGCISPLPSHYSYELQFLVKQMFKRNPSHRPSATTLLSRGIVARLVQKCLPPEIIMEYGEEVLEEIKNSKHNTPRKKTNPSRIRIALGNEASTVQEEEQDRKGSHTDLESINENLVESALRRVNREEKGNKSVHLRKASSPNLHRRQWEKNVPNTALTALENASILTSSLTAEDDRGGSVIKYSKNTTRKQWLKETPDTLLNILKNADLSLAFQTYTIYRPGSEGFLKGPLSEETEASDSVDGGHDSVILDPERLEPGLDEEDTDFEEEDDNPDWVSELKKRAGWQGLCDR", "UniProt P31152, sequence (whole entry, looked up)": "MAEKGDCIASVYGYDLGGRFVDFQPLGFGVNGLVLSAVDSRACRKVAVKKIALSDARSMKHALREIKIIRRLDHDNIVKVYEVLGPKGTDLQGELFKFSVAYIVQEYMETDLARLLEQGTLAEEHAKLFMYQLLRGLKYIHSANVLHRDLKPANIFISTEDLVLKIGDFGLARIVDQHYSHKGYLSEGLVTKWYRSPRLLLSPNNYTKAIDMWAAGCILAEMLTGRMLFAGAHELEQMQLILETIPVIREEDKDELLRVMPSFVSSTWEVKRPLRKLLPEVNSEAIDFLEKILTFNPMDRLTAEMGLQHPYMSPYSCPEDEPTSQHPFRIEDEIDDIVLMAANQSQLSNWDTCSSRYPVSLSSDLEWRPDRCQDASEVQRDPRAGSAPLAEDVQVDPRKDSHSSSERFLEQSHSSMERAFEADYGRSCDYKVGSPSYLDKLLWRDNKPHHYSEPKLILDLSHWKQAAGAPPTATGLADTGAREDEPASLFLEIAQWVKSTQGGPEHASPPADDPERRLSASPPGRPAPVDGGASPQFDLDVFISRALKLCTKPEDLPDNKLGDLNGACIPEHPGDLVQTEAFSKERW"}
{"data": "Study 1", "cell line": "Huh-7", "concentration": "10 µM", "time": "24 h"}
{"Structure (SMILES)": "O=C(/C=C/C=C/c1ccc2c(c1)OCO2)N1CCCCC1", "viability [%]": 98.9}
{"Structure (SMILES)": "C[C@](N)(Cc1ccc(O)c(O)c1)C(=O)O", "viability [%]": 86.6}
{"Structure (SMILES)": "CCOC(=O)[C@H](CCc1ccccc1)N[C@@H](C)C(=O)N1CCC[C@H]1C(=O)O", "viability [%]": 89.3}
{"Structure (SMILES)": "CC1(C)S[C@@H]2[C@H](NC(=O)[C@H](N)c3ccc(O)cc3)C(=O)N2[C@H]1C(=O)O", "viability [%]": 97.1}
{"Structure (SMILES)": "CCN(CC)CCOc1ccc2c(c1)C(=O)c1cc(OCCN(CC)CC)ccc1-2", "viability [%]": 92.4}
{"Structure (SMILES)": "CCc1oc2ccccc2c1C(=O)c1cc(Br)c(O)c(Br)c1", "viability [%]": 87.3}
{"Structure (SMILES)": "CN1CCC[C@@H]1Cc1c[nH]c2ccc(CCS(=O)(=O)c3ccccc3)cc12", "viability [%]": 97.6}
{"data": "Study 2", "target": "Dual serine/threonine and tyrosine protein kinase (DSTYK, Homo sapiens, UniProt Q6XUX3)", "read-out": "enzyme activity", "mode": "inhibitor", "concentration": "0.5 µM", "relative to": "control", "UniProt Q6XUX3, sequence (whole entry, looked up)": "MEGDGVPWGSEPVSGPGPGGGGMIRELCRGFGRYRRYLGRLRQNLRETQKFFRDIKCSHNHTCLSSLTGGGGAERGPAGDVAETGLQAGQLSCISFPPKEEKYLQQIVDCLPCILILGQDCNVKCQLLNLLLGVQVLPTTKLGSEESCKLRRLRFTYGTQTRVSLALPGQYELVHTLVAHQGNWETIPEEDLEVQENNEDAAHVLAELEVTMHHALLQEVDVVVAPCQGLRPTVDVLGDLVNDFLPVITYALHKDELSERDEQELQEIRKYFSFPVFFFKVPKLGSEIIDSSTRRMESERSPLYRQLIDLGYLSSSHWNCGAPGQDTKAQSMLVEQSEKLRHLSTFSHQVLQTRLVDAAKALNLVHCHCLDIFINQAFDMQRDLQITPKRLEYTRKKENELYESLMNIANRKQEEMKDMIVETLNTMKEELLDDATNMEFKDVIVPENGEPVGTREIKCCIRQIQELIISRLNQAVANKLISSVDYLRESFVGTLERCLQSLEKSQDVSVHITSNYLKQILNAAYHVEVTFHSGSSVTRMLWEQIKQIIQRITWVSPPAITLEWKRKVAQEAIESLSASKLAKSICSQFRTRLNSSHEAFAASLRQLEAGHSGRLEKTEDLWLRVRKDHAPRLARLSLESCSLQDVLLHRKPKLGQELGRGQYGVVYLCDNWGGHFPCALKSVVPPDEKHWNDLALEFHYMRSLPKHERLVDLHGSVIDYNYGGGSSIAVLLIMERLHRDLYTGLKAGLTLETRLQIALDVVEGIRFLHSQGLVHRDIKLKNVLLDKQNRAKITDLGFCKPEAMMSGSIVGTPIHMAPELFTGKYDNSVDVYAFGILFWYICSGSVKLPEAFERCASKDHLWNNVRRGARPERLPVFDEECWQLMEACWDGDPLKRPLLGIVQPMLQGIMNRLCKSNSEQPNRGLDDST"}
{"SMILES": "C[C@@H]1CCN(C(=O)CC#N)C[C@@H]1N(C)c1ncnc2[nH]ccc12", "remaining activity [%]": 98.4}
{"SMILES": "O=C(NC(NC(=S)Nc1ccc(F)c([N+](=O)[O-])c1)C(Cl)(Cl)Cl)C(c1ccccc1)c1ccccc1 (centres unmarked)", "remaining activity [%]": 100}
{"SMILES": "CCN(CC)CCNC(=O)c1c(C)[nH]c(/C=C2\\C(=O)Nc3ccc(Cl)cc32)c1C", "remaining activity [%]": 105}
{"SMILES": "CN([C@@H](Cc1ccc(OS(=O)(=O)c2cccc3cnccc23)cc1)C(=O)N1CCN(c2ccccc2)CC1)S(=O)(=O)c1cccc2cnccc12", "remaining activity [%]": 97.4}
{"SMILES": "c1ccc(-c2[nH]ncc2-c2ccnc3ccccc23)nc1", "remaining activity [%]": 98.3}
{"data": "Study 3", "SMILES": "O=c1nc(-c2ccccn2)sc2ccccc12", "technique": "competition with immobilised ligand", "concentration": "1 µM"}
{"target": "Receptor-type tyrosine-protein kinase FLT3 (FLT3, Homo sapiens, UniProt P36888, ITD)", "read-out": "binding", "remaining binding [%]": 100}
{"target": "Mitogen-activated protein kinase 4 (MAPK4, Homo sapiens, UniProt P31152)", "read-out": "binding", "remaining binding [%]": 100}
{"target": "Serine/threonine-protein kinase Sgk3 (SGK3, Homo sapiens, UniProt Q96BR1)", "read-out": "binding", "remaining binding [%]": 100}
{"target": "Eukaryotic translation initiation factor 2-alpha kinase 1 (EIF2AK1, Homo sapiens, UniProt Q9BQI3)", "read-out": "binding", "remaining binding [%]": 97}
{"target": "Serine/threonine-protein kinase D3 (PRKD3, Homo sapiens, UniProt O94806)", "read-out": "binding", "remaining binding [%]": 81}
{"target": "Serine/threonine-protein kinase PAK 6 (PAK6, Homo sapiens, UniProt Q9NQU5)", "read-out": "cell-free assay", "remaining binding [%]": 100}
{"target": "Beta-adrenergic receptor kinase 1 (GRK2, Homo sapiens, UniProt P25098)", "read-out": "binding", "remaining binding [%]": 65}
{"target": "Serine/threonine-protein kinase PLK1 (PLK1, Homo sapiens, UniProt P53350)", "read-out": "binding", "remaining binding [%]": 100}
{"target": "Serine/threonine-protein kinase Nek3 (NEK3, Homo sapiens, UniProt P51956)", "read-out": "binding", "remaining binding [%]": 72}
{"target": "Death-associated protein kinase 2 (DAPK2, Homo sapiens, UniProt Q9UIK4)", "read-out": "binding", "remaining binding [%]": 86}
{"target": "MAP/microtubule affinity-regulating kinase 3 (MARK3, Homo sapiens, UniProt P27448)", "read-out": "binding", "remaining binding [%]": 89}
{"target": "Death-associated protein kinase 1 (DAPK1, Homo sapiens, UniProt P53355)", "read-out": "binding", "remaining binding [%]": 100}
{"target": "Phosphatidylinositol 3-kinase C2 domain-containing subunit gamma (PIK3C2G, Homo sapiens, UniProt O75747)", "read-out": "binding", "remaining binding [%]": 100}
{"target": "Mitogen-activated protein kinase kinase kinase kinase 3 (MAP4K3, Homo sapiens, UniProt Q8IVH8)", "read-out": "binding", "remaining binding [%]": 90}
{"target": "Mast/stem cell growth factor receptor Kit (KIT, Homo sapiens, UniProt P10721, V559D)", "read-out": "binding", "remaining binding [%]": 95}
{"target": "Atypical kinase COQ8B, mitochondrial (COQ8B, Homo sapiens, UniProt Q96D53)", "read-out": "cell-free assay", "remaining binding [%]": 60}
{"target": "Serine/threonine-protein kinase Nek5 (NEK5, Homo sapiens, UniProt Q6P3R8)", "read-out": "binding", "remaining binding [%]": 78}
{"target": "Ephrin type-A receptor 3 (EPHA3, Homo sapiens, UniProt P29320)", "read-out": "cell-free assay", "remaining binding [%]": 87}
{"data": "Study 4", "host": "human", "matrix": "microsomes or S9", "concentration": "2 µM", "time": "0.5 h"}
{"Compound": "Cc1cc(C(=O)NCCCN2CCCC2=O)cs1", "remaining compound [%]": 87.2}
{"Compound": "CCCC(=O)Nc1nc2ncc(Br)nc2s1", "remaining compound [%]": 74.9}
{"Compound": "O=C(C1CC(=O)N(c2n[nH]c3cc(Br)ccc23)C1)N1CCCC1 (centres unmarked)", "remaining compound [%]": "> 99"}
{"Compound": "CCOC(=O)c1c(=O)n(-c2ccccc2)nc2cc(C(C)=O)ccc12", "remaining compound [%]": 38.4}
{"Compound": "CCCC1(CCC)c2cc(NC(=O)[C@@H]3CCCN3C(=O)OC(C)(C)C)ccc2-c2ccc(NC(=O)[C@@H]3CCCN3C(=O)OC(C)(C)C)cc21", "remaining compound [%]": 6.84}
{"data": "Study 5", "cell line": "mouse MPNST tumor cells", "technique": "high-content immunofluorescence imaging", "refers to": "nuclear SOX9", "concentration": "10 µM", "time": "12 h", "setting": "mean of 2 replicates", "relative to": "DMSO control", "direction": "higher = more nuclear SOX9"}
{"SMILES": "C#C[C@]1(O)CC[C@H]2[C@@H]3CCC4=CC(=O)CC[C@@H]4[C@H]3CC[C@@]21CC", "nuclear SOX9 intensity": "80 % of DMSO"}
{"SMILES": "Nc1cccc(CNC(=O)c2ccc(Oc3ccc(OCc4cccc(F)c4)cc3)nc2)c1", "nuclear SOX9 intensity": "100 % of DMSO"}
{"SMILES": "COc1cccc(-c2cc(=O)c3ccccc3o2)c1N", "nuclear SOX9 intensity": "83.4 % of DMSO"}
{"SMILES": "Nc1ncnc2c1ncn2[C@@H]1O[C@H](CO)C[C@H]1O", "nuclear SOX9 intensity": "118 % of DMSO"}
{"SMILES": "C[C@H]1Oc2cc(cnc2N)-c2c(nn(C)c2C#N)CN(C)C(=O)c2ccc(F)cc21", "nuclear SOX9 intensity": "109 % of DMSO"}
{"SMILES": "CC(C)C(=O)c1c(C(C)C)nn2ccccc12", "nuclear SOX9 intensity": "125 % of DMSO and 101 % of DMSO"}
{"note": "Some of these lines once more (study 3):"}
{"target": "Mitogen-activated protein kinase 4 (MAPK4, Homo sapiens, UniProt P31152)", "read-out": "binding", "remaining binding [%]": 100}
{"target": "Ephrin type-A receptor 3 (EPHA3, Homo sapiens, UniProt P29320)", "read-out": "cell-free assay", "remaining binding [%]": 87}
{"target": "Serine/threonine-protein kinase D3 (PRKD3, Homo sapiens, UniProt O94806)", "read-out": "binding", "remaining binding [%]": 81}
{"target": "Serine/threonine-protein kinase Nek5 (NEK5, Homo sapiens, UniProt Q6P3R8)", "read-out": "binding", "remaining binding [%]": 78}
